Assay results gathered from unrelated publications.
Every numbered part comes from another study and shows a few of its results, in no order. Substitutions count along the parent as printed.

Series 1 — method: universal PBM; form: double-stranded DNA, one strand shown; matrix: in vitro; concentration: 600 nM; reading: higher = stronger binding; measurement: E-score
Target: Sal-like protein 4, full length isoform A (SALL4, Homo sapiens, UniProt Q9UJQ4, residues 1-1053)
Chain of UniProt Q9UJQ4 (whole entry, looked up): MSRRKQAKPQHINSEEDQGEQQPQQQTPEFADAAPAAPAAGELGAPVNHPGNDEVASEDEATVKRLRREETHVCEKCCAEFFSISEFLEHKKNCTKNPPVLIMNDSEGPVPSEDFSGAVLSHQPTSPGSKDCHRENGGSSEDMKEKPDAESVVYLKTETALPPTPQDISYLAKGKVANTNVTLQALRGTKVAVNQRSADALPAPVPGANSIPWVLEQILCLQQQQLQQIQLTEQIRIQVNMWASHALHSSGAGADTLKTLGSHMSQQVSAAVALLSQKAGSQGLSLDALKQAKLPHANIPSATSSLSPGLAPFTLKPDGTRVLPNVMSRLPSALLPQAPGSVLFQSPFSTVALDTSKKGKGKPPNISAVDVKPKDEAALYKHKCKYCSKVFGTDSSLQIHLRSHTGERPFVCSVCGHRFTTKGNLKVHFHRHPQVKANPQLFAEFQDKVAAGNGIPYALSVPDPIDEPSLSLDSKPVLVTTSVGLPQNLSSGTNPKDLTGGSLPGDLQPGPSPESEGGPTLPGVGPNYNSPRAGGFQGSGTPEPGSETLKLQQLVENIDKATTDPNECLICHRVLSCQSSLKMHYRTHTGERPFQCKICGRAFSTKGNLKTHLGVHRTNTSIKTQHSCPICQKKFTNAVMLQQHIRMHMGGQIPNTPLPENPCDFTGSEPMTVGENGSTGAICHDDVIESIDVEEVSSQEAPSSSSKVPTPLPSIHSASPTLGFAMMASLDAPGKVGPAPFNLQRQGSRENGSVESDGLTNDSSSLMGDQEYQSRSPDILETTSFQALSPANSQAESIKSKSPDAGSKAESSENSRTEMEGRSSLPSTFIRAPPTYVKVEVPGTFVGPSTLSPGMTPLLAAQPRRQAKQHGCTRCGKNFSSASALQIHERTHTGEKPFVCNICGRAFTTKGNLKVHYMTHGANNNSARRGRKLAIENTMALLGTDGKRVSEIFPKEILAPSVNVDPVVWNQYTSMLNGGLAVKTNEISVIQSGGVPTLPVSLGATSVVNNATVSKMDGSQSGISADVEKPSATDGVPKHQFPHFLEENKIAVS
Notes: 8-mer, flanks averaged, mean of replicates
Strand = AACCAGTC; result = -0.00547
Strand = CGGCCAAG; result = -0.271
Strand = CGATGCTA; result = 0.0502
Strand = AATTCTTC; result = 0.121
Strand = AGGATAAC; result = 0.0483
Strand = GGTGGGCA; result = -0.12
Strand = ACCTAGTG; result = -0.0553
Strand = AGCAGCTC; result = -0.272
Strand = TGTGTTAA; result = 0.31
Strand = AGCACACT; result = 0.0597
Strand = GACTTTGC; result = -0.17
Strand = AGGGTCGC; result = -0.296
Strand = AACTTGTA; result = 0.25
Strand = AAGCAGCG; result = -0.128
Strand = ATCGTTGC; result = -0.0174
Strand = GATGCTAC; result = 0.0928
Strand = CGAGGTAG; result = -0.337
Strand = GCAACTGA; result = -0.092
Strand = ACTGCGCA; result = 0.0386
Strand = CTTCTGAA; result = 0.179
Strand = CTTAGTGA; result = -0.0889
Strand = TGCCTCCA; result = -0.118
Strand = ATAACTTG; result = 0.287
Strand = AACTCGCT; result = 0.0122
Strand = GAGCCCGA; result = -0.18

Series 2 — method: protein-binding microarray; form: double-stranded DNA, one strand shown; matrix: in vitro; concentration: 2200 nM top; notes: 60-bp whole probe; together with: salmon DNA 0.4 mg/ml; relative to: random background probes; reading: higher = stronger binding; measurement: fitted relative affinity; shared flanks, not repeated: GCCTAGCAC … GTCTTGATTCGCTTGACGCTGCTG
Target: Interferon regulatory factor 7, full length, phosphomimetic (IRF7, Homo sapiens, UniProt Q92985, residues 1-503, S471D/S472D/S475D/S476D/S477D/S483D/S484D/S487D)
Residues (chain): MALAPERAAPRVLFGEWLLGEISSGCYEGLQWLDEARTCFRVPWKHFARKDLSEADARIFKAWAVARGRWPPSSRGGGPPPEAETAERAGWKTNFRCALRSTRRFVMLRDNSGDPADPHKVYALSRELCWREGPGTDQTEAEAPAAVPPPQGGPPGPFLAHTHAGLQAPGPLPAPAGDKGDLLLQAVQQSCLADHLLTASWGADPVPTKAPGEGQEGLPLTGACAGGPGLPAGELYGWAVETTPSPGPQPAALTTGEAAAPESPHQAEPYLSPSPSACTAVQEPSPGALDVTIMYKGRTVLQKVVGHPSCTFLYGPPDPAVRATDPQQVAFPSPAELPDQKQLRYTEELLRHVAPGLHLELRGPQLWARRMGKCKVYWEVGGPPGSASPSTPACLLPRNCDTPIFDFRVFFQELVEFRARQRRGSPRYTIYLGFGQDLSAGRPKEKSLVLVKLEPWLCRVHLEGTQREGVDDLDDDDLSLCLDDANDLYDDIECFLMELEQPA
Strand = GACGATTTCAGTTCCCAGACGTGCTAG; result = 2.5 z-score
Strand = GACGGTATCCTATTGCTGACGTGCTAG; result = 0.757 z-score
Strand = GACGGTATCGGACTCGGGACGTGCTAG; result = -0.18 z-score
Strand = TTAGATCTCAGTTTCGAGTAGTGCTAG; result = 3.7 z-score
Strand = TTAGGTATCCTTTTCCATTAGTGCTAG; result = 1.54 z-score
Strand = TCATTTCCATCTCTCAAACTGTGCTAG; result = 3.09 z-score
Strand = GACGGACTGGGGTATCGGGAGGTGCTA; result = -0.596 z-score
Strand = TCATTTCTACTTCTCTTACTGTGCTAG; result = 3.29 z-score
Strand = GACAGTTTCGGTTCCGGGACGTGCTAG; result = 13.7 z-score
Strand = GACCGTTTCGGTATCGGGACGTGCTAG; result = 5.51 z-score
Strand = GACGATCTCAGTTTCGAGAGGTGCTAG; result = 2.05 z-score
Strand = GACTGTTTCGGTTTCGGGACGTGCTAG; result = 12.4 z-score
Strand = GACGATATCGGGGTTCGAGACGTGCTA; result = 0.0863 z-score
Strand = GACGGGCTGGACACTGGGGACGTGCTA; result = -1.15 z-score
Strand = GTCGGTTTCGGGTTTCGGGACGTGCTA; result = 11.4 z-score

Series 3 — method: RNA Bind-n-Seq; form: RNA; matrix: in vitro; concentration: not given; relative to: input RNA pool; reading: higher = stronger binding; measurement: bound/input enrichment
Target: RING finger protein unkempt homolog, zinc fingers 1-6, GST-SBP tag (UNK, Homo sapiens, UniProt Q9C0B0, residues 30-357)
Chain of UniProt Q9C0B0 (30-357, looked up): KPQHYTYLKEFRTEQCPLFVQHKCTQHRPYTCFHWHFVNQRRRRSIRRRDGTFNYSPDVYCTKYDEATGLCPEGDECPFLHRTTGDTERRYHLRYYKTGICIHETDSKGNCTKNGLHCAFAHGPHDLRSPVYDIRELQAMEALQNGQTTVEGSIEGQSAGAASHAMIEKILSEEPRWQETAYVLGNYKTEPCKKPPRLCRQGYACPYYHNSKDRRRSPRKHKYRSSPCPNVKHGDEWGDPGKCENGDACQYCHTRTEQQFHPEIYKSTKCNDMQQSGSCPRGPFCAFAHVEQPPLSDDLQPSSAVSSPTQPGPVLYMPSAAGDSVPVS
Notes: RNA with constant flanks, human-mouse chimeric sites, ends assumed
Shared flanks, not repeated: GGGAGUUCUACAGUCCGACGAUC … CAACAGAGGAUUGAGCAUCA
Strand = AAAGAGAAUGGAGAUGUAAAGAUUUUGCUGAAAAGUGGGAAGGAGAAACCAAAAACAAAUAUAGAAGACUUACAAAUUAAAAAAGUAAAGAAGAAAAAGAAAAAGAAACACAAAGAGAAU; result = 13.2 ratio
Strand = AACAGAUUGUCUUUAAGCAUUCCAAGCGAGAAUGCUGGGGUGAUCAUUGUUGCCCAUGUGCCUUCUGACUGAGCUUUUAAUUAAUUGCAUGUUACAUCUUUCCUUCAUUGCAUAUUUGUU; result = 0.251 ratio
Strand = AUAGAUGAAAUUGAUGUGGACCAGGAAGGAAUUGCAGAAAUGAUCCUGGAUGAAAAUGCUAUUGCUCAGGUCCCACGCCCUGGAACGUCUUUGAAGCUCCCUGGCACUAACCAAACAGGA; result = 0.368 ratio
Strand = CUGUGACCACAAGAUCCUGAAGUUUGAGCAGCUGAAGUUGACUCCCUCUCCUUGCCUGAACCCCCCCCCACUGCCCCCCCAUCCCCCAGUGUCGGCUGAGAUGUUGCCAGCAGACAGUUC; result = 1.32 ratio
Strand = CUUAUGGCUGCAGAAACAGGAAGUGGAAAAACUGGUGCAUUUAGUAUUCCCGUUAUCCAGAUAGUGUAUGAAACUCUGAAAGACCAACAGGAAGGAAAGAAAGGGAAAACAACUAUUAAA; result = 0.66 ratio

Series 4 — method: DHFR PCA, deep sequencing; matrix: yeast; together with: (+)-ABA 17 µM; relative to: wild-type fitted maximum; reading: higher = stronger binding; measurement: relative binding score
Target: ABI1, truncated, D143A, DHFR fusion (Arabidopsis thaliana)
Notes: methotrexate growth selection, single substitutions
Parent: PYL1, truncated, DHFR fusion (Arabidopsis thaliana); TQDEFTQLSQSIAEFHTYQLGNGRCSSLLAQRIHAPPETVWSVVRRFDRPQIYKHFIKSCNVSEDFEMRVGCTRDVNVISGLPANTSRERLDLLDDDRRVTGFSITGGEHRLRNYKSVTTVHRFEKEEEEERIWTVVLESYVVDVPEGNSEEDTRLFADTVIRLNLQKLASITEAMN; partner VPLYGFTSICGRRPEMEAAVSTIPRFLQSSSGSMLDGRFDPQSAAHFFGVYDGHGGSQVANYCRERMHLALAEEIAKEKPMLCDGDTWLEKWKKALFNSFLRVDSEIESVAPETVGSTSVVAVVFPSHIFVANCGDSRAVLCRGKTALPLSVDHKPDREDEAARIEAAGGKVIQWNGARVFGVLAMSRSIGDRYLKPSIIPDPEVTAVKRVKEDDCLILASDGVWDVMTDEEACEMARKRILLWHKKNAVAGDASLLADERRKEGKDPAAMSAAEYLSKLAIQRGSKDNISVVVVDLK
Substitution = P83R; result = 11.2%
Substitution = L28R; result = 56.3%
Substitution = T1W; result = 80%
Substitution = R69V; result = 85.7%
Substitution = P146S; result = 18.2%
Substitution = C25H; result = -2.93%
Substitution = V70Y; result = 7.15%
Substitution = R163G; result = 62.8%
Substitution = Q2N; result = 83.8%
Substitution = E128M; result = 76.8%
Substitution = A170F; result = 13.4%

Series 5 — method: protein binding microarray; form: double-stranded DNA, one strand shown; matrix: in vitro; concentration: not given; relative to: not given; reading: higher = stronger binding; measurement: E-score
Target: Histone acetyltransferase KAT6A, both winged helices, GST fusion (KAT6A, Homo sapiens, UniProt Q92794, residues 1-181)
Notes: 8-mer, flanks averaged, mean of 2 arrays, mostly near background
Residues (chain): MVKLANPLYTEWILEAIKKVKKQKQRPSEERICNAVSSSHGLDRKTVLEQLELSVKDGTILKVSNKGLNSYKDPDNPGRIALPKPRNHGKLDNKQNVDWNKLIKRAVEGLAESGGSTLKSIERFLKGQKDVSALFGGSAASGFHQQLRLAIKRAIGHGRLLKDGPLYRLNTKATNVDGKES
Strand = AAACGGGG; result = 0.148
Strand = TGTCGCAA; result = 0.0846
Strand = ACACTGCA; result = -0.152
Strand = ACCAATCC; result = -0.04
Strand = ACGGGGAC; result = 0.151
Strand = CATGAACA; result = -0.0146
Strand = GATTCTGA; result = 0.0272
Strand = AGGTCATG; result = -0.151
Strand = CCATAAGG; result = -0.0744
Strand = CCAAACCC; result = -0.0822
Strand = ACCGGGCG; result = 0.164
Strand = AAAAATGA; result = -0.078
Strand = CTATGGCC; result = -0.0489
Strand = ATACATTG; result = -0.112
Strand = CCGACCAC; result = 0.000535
Strand = AAAATGTA; result = -0.0866
Strand = ACGTGCCT; result = -0.119
Strand = CTTAGACA; result = -0.144
Strand = CCTAGATC; result = -0.109
Strand = ATAGTTGA; result = -0.023

Series 6 — target: CCNB2, cyclin fold, Cln2 fusion (human); method: yeast growth competition, sequencing; matrix: yeast; notes: weak parent motif; relative to: not given; reading: higher = stronger binding; measurement: normalised enrichment score
Parent: SLBP docking peptide (human); ARYKRKLLINDFG
Substitution = R5P; result = 0.48
Substitution = D11T; result = 0.86
Substitution = K4V; result = 0.632
Substitution = D11S; result = 0.402
Substitution = N10D; result = 0.413
Substitution = L7N; result = 0.96
Substitution = R2W; result = 0.326
Substitution = L7E; result = 0.605
Substitution = L7C; result = 0.526
Substitution = R2A; result = -0.115
Substitution = K6C; result = 0.952
Substitution = L7R; result = 0.502
Substitution = R5H; result = 0.241
Substitution = I9N; result = 0.581
Substitution = L8N; result = 0.757
Substitution = I9R; result = 0.869

For quick reference, copied from above (series 1):
Strand = AACCAGTC; result = -0.00547
Strand = CGGCCAAG; result = -0.271
Strand = CGATGCTA; result = 0.0502
Strand = AATTCTTC; result = 0.121
Strand = AGGATAAC; result = 0.0483
Strand = GGTGGGCA; result = -0.12
Strand = ACCTAGTG; result = -0.0553
